Earlier results, collected from citations in different studies.
Lines come from different studies, so protocols differ. “And” joins repeats or separate records; there may be more than shown. Values after ≈ are worked out from the molar mass of the structure shown.
Chain of UniProt Q96RR4 (whole entry, looked up): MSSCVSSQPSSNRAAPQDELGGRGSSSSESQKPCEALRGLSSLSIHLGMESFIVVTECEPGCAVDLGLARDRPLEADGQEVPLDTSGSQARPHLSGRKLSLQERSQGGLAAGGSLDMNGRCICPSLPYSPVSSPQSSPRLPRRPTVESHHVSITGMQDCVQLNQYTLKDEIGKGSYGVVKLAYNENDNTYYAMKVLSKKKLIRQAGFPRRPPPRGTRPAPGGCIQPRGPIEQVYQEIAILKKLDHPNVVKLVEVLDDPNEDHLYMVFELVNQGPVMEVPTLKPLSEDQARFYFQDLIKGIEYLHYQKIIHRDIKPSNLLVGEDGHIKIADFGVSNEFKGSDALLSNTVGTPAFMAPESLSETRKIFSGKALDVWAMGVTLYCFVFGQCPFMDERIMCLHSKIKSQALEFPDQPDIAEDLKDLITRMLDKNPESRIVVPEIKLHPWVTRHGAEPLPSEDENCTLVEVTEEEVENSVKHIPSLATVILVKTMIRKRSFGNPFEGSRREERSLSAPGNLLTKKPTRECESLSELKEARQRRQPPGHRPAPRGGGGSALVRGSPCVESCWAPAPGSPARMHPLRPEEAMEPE

The MIC90 of `O=[N+]([O-])c1c[nH]c(-c2nc(-c3ccc(OC4CCCC4)cc3)no2)n1` is reported as 1 µg/mL (≈ 2.93 µM) (Clostridioides difficile; vegetative cells).
For `Nc1cc(C(F)(F)F)c(-c2nc(N3CCOCC3)nc(N3CCOCC3)n2)cn1`, the remaining activity was 100% (CAMKK2 (Homo sapiens, UniProt Q96RR4); enzyme activity; 10 µM; relative to: untreated).
`Cc1[nH]c(C)c(-c2ccc(OCc3ccccc3C(F)(F)F)nc2)c(=O)c1Br` gave an IC50 of 20 nM (Plasmodium falciparum; whole cell extended time; 3D7; 72 h).
`CC1(C)NC(=O)N(c2ccc(F)c(C(C)(F)F)c2)C1=O`: “worm burden reduction” 89% and 62 to 100% (Schistosoma mansoni; juvenile, infected mice; oral, 100 mg/kg single dose).
`COc1ccc(-c2ccn(CC[C@](C)(C(=O)NO)S(C)(=O)=O)c(=O)c2)c(F)c1` gave a post-antibiotic effect of 1.26 h (Pseudomonas aeruginosa; PAO1; 4 × MIC).
For `CCOC(=O)C(c1ccc2ccccc2c1O)N1CCOCC1` (stereo not drawn), “relative fluorescence index” read -0.72 (Staphylococcus aureus; efflux pump inhibition; ATCC 25923; 100 µM; relative to: untreated cells).
For `[N-]=[N+]=N[C@]1(CO)O[C@@H](n2ccc(N)nc2=O)[C@@H](F)[C@@H]1O`, the EC50 was 30 to 370 nM (HIV-1; viral replication; C8166).
`N#Cc1cc(NC(=O)[C@H]2c3ccccc3C(=O)N(CC(F)(F)F)[C@@H]2c2cccnc2)ccc1F`: “AUC at ED90” 1.5 µM·h (Plasmodium falciparum; 3D7 0087/N9, NSG mouse; dose not given).
`COc1ccc(C=CC(=O)NC(=O)c2ccccc2OC(=O)c2ccccc2)cc1OC` has an IC50 of 910 nM (Plasmodium falciparum; whole cell extended time; 3D7; 72 h).
For `O=C(C1CCCCC1)N1CC(=O)N2CCc3ccccc3C2C1` (stereo not drawn), antischistosomal activity read “inactive” (Schistosoma mansoni; juvenile, mouse; dose not given, 37, 38).
`Cc1ccc(Oc2ccc(NC(=O)CNc3ccccc3N3CCCC3=O)cc2)cc1` gave an EC50 of 10000 nM (Plasmodium falciparum; parasite growth; 3D7 population D CSC1 L954F).
`CCc1c(Cl)c(O)c(Cl)c(O)c1C(=O)O[C@H]1[C@H](O)[C@H](OC)[C@H](OC/C2=C\C=C\C[C@H](O)/C(C)=C/[C@H](CC)[C@@H](O[C@@H]3OC(C)(C)[C@@H](OC(=O)C(C)C)[C@H](O)[C@@H]3O)/C(C)=C/C(C)=C/C[C@@H]([C@@H](C)O)OC2=O)O[C@@H]1C` has an MIC of less than 0.06 µg/mL (Fusobacterium nucleatum; HM-992).
`CCOC(=O)c1cn(CC)c2cc(OCc3ccccc3)ccc2c1=O` has an IC50 of 950 nM (Plasmodium falciparum; whole cell extended time; 3D7; 72 h).
`N#CSCCOc1ccc(Oc2ccccc2)cc1` gave an EC50 of 12000 nM (Trypanosoma cruzi; parasite growth; intracellular amastigotes).
`Cc1nc2ccccc2c(O)c1-c1ccc(Cl)cc1` has an IC50 of 1000 nM (Plasmodium falciparum; whole cell extended time; 3D7; 72 h).
`O=C(C1CCCCC1)N1CC(=O)N2CCc3ccccc3C2C1` (stereo not drawn) — result for “worm burden reduction”: 95 to 100% (Schistosoma mansoni; infected mice; 400 mg/kg; relative to: untreated).
`CC1(C)S[C@@H]2[C@H](NC(=O)[C@H](N)c3ccccc3)C(=O)N2[C@H]1C(=O)O` has an MIC of greater than 16 µg/mL (Acinetobacter baumannii; clinical isolate RKI-No_4/15).
With `Cc1cc(O)c(-c2ccc(Sc3ccc(Cl)cc3)cc2)c(C)n1` the IC50 was 970 nM (Plasmodium falciparum; whole cell extended time; 3D7; 72 h).
`O=C(C1CCCCC1)N1CC(=O)N2CCc3ccccc3C2C1` (stereo not drawn) — result for “worm burden reduction”: 18% (Schistosoma mansoni; adult, infected mice; oral, 1 × 100 mg/kg).
For `Cc1[nH]c(C)c(-c2ccc(OCCCCSc3ccncc3)cc2)c(=O)c1Br`, the IC50 was 250 nM (Plasmodium falciparum; whole cell extended time; 3D7; 72 h).
With `Oc1ccc(-c2nc(-c3ccc(OC4CCCC4)cc3)no2)cc1` the MIC was greater than 128 µg/mL (Klebsiella pneumoniae; ATCC 700603).
With `O=C(c1cc(-c2ccco2)[nH]n1)N1CCN(S(=O)(=O)c2ccc(Br)cc2)CC1` the IC50 was 500 nM (Plasmodium falciparum; whole cell extended time; 3D7; 72 h).
With `Cc1cnc(N2CC3(CCOCC3)C2)c(C(=O)Nc2ccc(C(=O)N3CCc4cc(C(=O)Nc5c(C)cccc5F)sc4-c4ccccc43)cc2)c1` the median IC90 was 0.36 µg/mL (respiratory syncytial virus; cytopathic effect; 5 subtype B clinical isolates).
`Cc1[nH]c(C)c(-c2ccc(C#Cc3ccc(F)cc3F)cc2)c(=O)c1Br` has an IC50 of 30 nM (Plasmodium falciparum; whole cell extended time; 3D7; 72 h).
For `CNC(C)C1CCC(N)C(OC2C(N)CC(N)C(OC3OCC(C)(O)C(NC)C3O)C2O)O1` (stereo not drawn), the MIC was greater than 8 µg/mL (Acinetobacter baumannii; clinical isolate RKI-No_230/15).
With `O=C(NCc1c(F)cc(F)cc1F)c1cn2c(c(O)c1=O)C(=O)N1[C@H]3CC[C@H](C3)O[C@@H]1C2` the paEC95 was 0.162 µg/mL (HIV-1).
For `Cc1cccc(C)c1OCC(=O)N[C@@H](Cc1ccccc1)[C@@H](O)C[C@H](Cc1ccccc1)NC(=O)[C@H](C(C)C)N1CCCNC1=O`, the EC50 was 0.07 µg/mL (Human immunodeficiency virus; viral replication).
